Measurements of several laboratories.
Compare with care: the assays were run in different laboratories.
ACVR2B: Activin receptor type-2B (ACVR2B, Homo sapiens, UniProt Q13705)
TDP1: Tyrosyl-DNA phosphodiesterase 1 (TDP1, Homo sapiens, UniProt Q9NUW8)
Chain of UniProt Q9NUW8 (whole entry, looked up): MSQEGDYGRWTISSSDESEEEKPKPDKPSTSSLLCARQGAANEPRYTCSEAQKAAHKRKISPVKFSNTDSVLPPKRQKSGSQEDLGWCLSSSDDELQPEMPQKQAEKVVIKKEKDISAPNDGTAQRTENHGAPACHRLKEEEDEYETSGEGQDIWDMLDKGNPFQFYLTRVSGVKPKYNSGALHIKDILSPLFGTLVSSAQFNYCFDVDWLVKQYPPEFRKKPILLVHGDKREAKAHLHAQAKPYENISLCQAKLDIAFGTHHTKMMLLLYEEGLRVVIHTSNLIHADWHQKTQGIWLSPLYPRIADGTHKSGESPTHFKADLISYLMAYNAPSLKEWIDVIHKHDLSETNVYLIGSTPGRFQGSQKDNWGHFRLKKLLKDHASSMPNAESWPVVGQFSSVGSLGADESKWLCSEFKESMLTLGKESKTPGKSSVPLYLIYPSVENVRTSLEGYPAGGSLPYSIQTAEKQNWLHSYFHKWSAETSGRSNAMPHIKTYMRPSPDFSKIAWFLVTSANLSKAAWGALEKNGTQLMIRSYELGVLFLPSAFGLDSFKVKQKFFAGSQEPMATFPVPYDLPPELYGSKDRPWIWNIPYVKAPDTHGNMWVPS

COc1cc(Nc2nccc(-c3cnn4nc(OC)ccc34)n2)cc(C(F)(F)F)c1  remaining binding (ACVR2B; binding, competition with immobilised ligand; 1 µM): 95%
CNC1C[S+]2CC[S+]3CC[S+](C1)[Ru-4]321([N]=C=S)[n]2c3ccc(OC)cc3c3c4c(c5cc(F)c[n+]1c5c32)C(=O)NC4=O (stereo not shown)  remaining binding (ACVR2B; KinomeScan; 0.1 µM; baseline: untreated): 100%
COc1cc(Nc2nc(C)cc(-c3cnn4nc(OC)ccc34)n2)cc(C(F)(F)F)c1  remaining activity (ACVR2B; inhibitor; 1 µM; baseline: control): 92%
CC(C)=CC1OC(C)(C)C2C=C3C(=O)C(Cl)=CC(O)C3C3C(O)C4OC4C(=O)C132 (stereo not shown)  remaining binding (ACVR2B; cell-free assay, competition with immobilised ligand; 10 µM): 99%
O=C(O)c1ccc(Nc2c(-c3ccccc3)nc3ccc(CON=Cc4ccc(N5CCCC5=O)cc4)cn23)cc1  inhibition (TDP1; enzyme activity, inhibitor; 100 µM, unpurified compound): 45.5%
C=CC(=O)N1Cc2nc(-c3cc(-c4cc(Cl)cnc4Cl)c(F)cc3F)n(-c3ccncn3)c2C1  inhibition (ACVR2B; cell-free assay; 1 µM): -3%
COc1c(Cl)cccc1Nc1c(-c2ccncc2C#C[C@@]2(C)CCCN2C(=O)/C=C/CN(C)C)[nH]c2c1C(=O)NCC2  remaining binding (ACVR2B; binding, competition with immobilised ligand; 3 µM): 98%
CNC(=O)C1CCN(c2cc(C)c(F)cc2NC(=O)c2ccc(-c3cc(O)ccc3C)c(C)c2)CC1  remaining binding (ACVR2B; binding, competition with immobilised ligand; 1 µM): 93%
CCN1CCN(Cc2ccc(C(=O)Nc3ccc(C)c(NCc4cnc5[nH]ccc5c4OC)c3)cc2C(F)(F)F)CC1  remaining binding (ACVR2B; binding, competition with immobilised ligand; 1 µM): 86%
C=CC(=O)N1CCCC(n2c(=O)c3ncccc3n(Cc3ccc(Oc4ccccc4)cc3)c2=O)C1 (stereo not shown)  remaining binding (ACVR2B; cell-free assay, competition with immobilised ligand; 1 µM): 75%
C=CC(=O)N1CCc2ccc(-n3c(=O)ccc4cnc5ccc(-c6cnn(C)c6)cc5c43)cc21  remaining binding (ACVR2B; KINOMEscan; 1 µM; baseline: DMSO control): 70%
Cc1c(C=NOCc2ccc3nc(-c4ccccc4)c(Nc4ccc(C(=O)O)cc4)n3c2)c2ccccc2n1CC(=O)O (mixture of isomers)  inhibition (TDP1; enzyme activity, inhibitor; 100 µM, unpurified compound): -4.6%
Cc1ccc(-c2c(/C=C(\C#N)C(=O)NC(C)C)n(CCCO)c3ncnc(N)c23)cc1  remaining binding (ACVR2B; cell-free assay, competition with immobilised ligand; 1 µM): 77%
Cc1cnc2nc1Nc1cccc(c1)COC/C=C/COCc1cc(ccc1OCCN1CCOCC1)N2  percent of control (ACVR2B; concentration not given): 92%
CN1CCN(Cc2ccc(-c3ccc(CO[C@H]4CCC[C@@H]4NC(=O)c4cc(-c5cnn(C)c5)cnc4N)cc3)cc2)CC1  inhibition (ACVR2B; enzyme activity, inhibitor; 0.1 µM): 6%
Nc1ncc2c(n1)-c1c([nH]c3ccc(C4=CCOCC4)cc13)CCC2  remaining binding (ACVR2B; binding, competition with immobilised ligand; 1 µM): 94%

Excerpt of the above:
Cc1ccc(-c2c(/C=C(\C#N)C(=O)NC(C)C)n(CCCO)c3ncnc(N)c23)cc1  remaining binding (ACVR2B; cell-free assay, competition with immobilised ligand; 1 µM): 77%
Cc1c(C=NOCc2ccc3nc(-c4ccccc4)c(Nc4ccc(C(=O)O)cc4)n3c2)c2ccccc2n1CC(=O)O (mixture of isomers)  inhibition (TDP1; enzyme activity, inhibitor; 100 µM, unpurified compound): -4.6%
